Assay results from different studies.
Compare with care: the assays were run in different laboratories.
Cell line: Vero

`CCCCCCCCCCCCCCCCC1CC(=O)NCCCN(C)CCCCN(C)CCCN1C` (centres unmarked) has an IC50 of 2.8 µg/mL (cytotoxicity, neutral red).
`Cc1nn(C)c(O)c1-c1nc2cc(Cl)c(Cl)cc2[nH]c1=O` gave an IC50 of > 100 µM (cell growth or viability, MTT; 72 h).
`O=C1C[C@@H](c2ccccc2)Oc2c(Cc3ccccc3O)c(O)cc(O)c21` — result for cytotoxicity: “inactive” (MTT; concentration not given, 72 h).
`C/C(=N\NC(N)=S)c1ccccn1` gave an IC50 of 7.5 µg/mL (cell growth or viability, SRB; 48 h).
For `COc1c(Cc2ccccc2O)c(O)c2c(c1Cc1ccccc1O)O[C@H](c1ccccc1)CC2=O`, cytotoxicity read “inactive” (MTT; concentration not given, 72 h).
For `N#CC[C@H](C1CCCC1)n1cc(-c2ncnc3[nH]ccc23)cn1`, the IC50 was > 50 µM (cell growth or viability, MTT; 72 h).
For `Cc1ccc2nc(C)c(C(=O)NCc3ccc(C(F)(F)F)cc3)n2c1`, the IC50 was > 50 µM (cytotoxicity).
With `C/C(=N\N=c1/[nH]c(-c2ccccc2)cs1)c1ccccn1` the inhibition was 63.6% (cell growth or viability, SRB; 100 µg/mL, 48 h).

Excerpt of the above:
`C/C(=N\NC(N)=S)c1ccccn1` gave an IC50 of 7.5 µg/mL (cell growth or viability, SRB; 48 h).
